Results pooled from the literature.
Organism: Staphylococcus aureus

| SMILES | observed | technique | strain | time | MIC |
| --- | --- | --- | --- | --- | --- |
| O=C(O)c1ccc(-n2cc(/C=N/Nc3cccc(Cl)c3F)c(-c3ccc4ccccc4c3)n2)cc1 | microbial growth |  | ATCC25923 |  | 1.56 mg/L |
| COC(=O)CCCCc1cn(CCCNC(=O)Cc2cc(=O)oc3cc(N(C)C)ccc23)nn1 | microbial growth | broth dilution | NCTC8325 | 20 h | > 64 mg/L |
| CCCCCCCCCc1nc2cc(Cl)ccc2c(=O)n1CCCN |  | broth microdilution | RN6390B |  | 6.25 µM |
| O=C(CC1COC(=O)N1/N=C/c1ccc([N+](=O)[O-])o1)c1ccccc1 (stereo not drawn) | microbial growth | broth dilution | ATCC29213 | 18 h | > 50 mg/L |
| CN(C)c1cc(CNC2CCCCC2)c(O)c2c1C[C@H]1C[C@H]3[C@H](N(C)C)C(O)=C(C(N)=O)C(=O)[C@@]3(O)C(O)=C1C2=O | microbial growth | broth dilution |  |  | 2 mg/L |
| NC[C@@H]1O[C@H](O[C@H]2[C@@H](O)[C@H](O[C@@H]3[C@@H](O)[C@H](N)C[C@H](N)[C@H]3O[C@H]3O[C@H](CO)[C@@H](OCC(O)CO)[C@H](O)[C@H]3N)O[C@@H]2CO)[C@H](N)[C@@H](O)[C@@H]1O (stereo partly drawn) |  | broth microdilution | MRSA isolate AG 038 |  | 16 to 32 mg/L |
| CN(C)c1cc(CNCCC(C)(C)C)c(O)c2c1C[C@H]1C[C@H]3[C@H](N(C)C)C(O)=C(C(N)=O)C(=O)[C@@]3(O)C(O)=C1C2=O | microbial growth |  | MRSA |  | 1 mg/L |
| CNC(CC(C)C)C(=O)NC1C(=O)NC(CC(N)=O)C(=O)NC2C(=O)NC3C(=O)NC(C(=O)NC(C(=O)O)c4cc(O)cc(O)c4-c4cc3ccc4O)C(O)c3ccc(c(Cl)c3)Oc3cc2cc(c3OC2OC(CO)C(O)C(O)C2OC2CC(C)(NC(=O)CCCCCCCCC[N+](C)(C)C)C(O)C(C)O2)Oc2ccc(cc2Cl)C1O (stereo not drawn) |  | agar dilution | MRSA clinical isolate MRSA4 |  | 32 mg/L |
| Cc1cc(O)cc2c1C(=O)c1c(cc3oc(=O)cc(-c4ccc(Cl)cc4)c3c1O)C2=O | microbial growth |  |  |  | 16 mg/L |
| CN(C)Cc1cc(N(C)C)c2c(c1O)C(=O)C1=C(O)[C@]3(O)C(=O)C(C(N)=O)=C(O)[C@@H](N(C)C)[C@@H]3C[C@@H]1C2 | microbial growth | broth dilution |  |  | 1 mg/L |
| CC1C=CC=CC(C)C2C=CC3CC(C)(O)C(Br)C(C)C3C2C(=O)C(Cl)(Cl)C(=O)C(C)C(=O)O1 (stereo not drawn) | microbial growth | broth dilution | NEWMAN |  | 0.05 mg/L |
| Oc1cc(F)ccc1Oc1ccccc1 | microbial growth | broth dilution |  |  | 39 µM |
| CCN(CC)CCCN1/C(=C/c2cc[n+](C)c3ccccc23)Sc2ccccc21 | microbial growth | broth dilution | ATCCBAA1720 MRSA |  | 16 mg/L |
| Cc1csc(NCc2cc(N(C)C)c3c(c2O)C(=O)C2=C(O)[C@]4(O)C(=O)C(C(N)=O)=C(O)[C@@H](N(C)C)[C@@H]4C[C@@H]2C3)n1 | microbial growth | broth dilution |  |  | 4 mg/L |
| NC[C@@H]1O[C@H](O[C@H]2[C@@H](O)[C@H](O[C@@H]3[C@@H](O)[C@H](N)C[C@H](N)[C@H]3O[C@H]3O[C@H](CO)[C@@H](OCCO)[C@H](O)[C@H]3N)O[C@@H]2CO)[C@H](N)[C@@H](O)[C@@H]1O |  | broth microdilution | MRSA isolate AG 038 |  | 32 mg/L |

Excerpt of the above:
| SMILES | observed | technique | strain | time | MIC |
| --- | --- | --- | --- | --- | --- |
| CN(C)Cc1cc(N(C)C)c2c(c1O)C(=O)C1=C(O)[C@]3(O)C(=O)C(C(N)=O)=C(O)[C@@H](N(C)C)[C@@H]3C[C@@H]1C2 | microbial growth | broth dilution |  |  | 1 mg/L |
| COC(=O)CCCCc1cn(CCCNC(=O)Cc2cc(=O)oc3cc(N(C)C)ccc23)nn1 | microbial growth | broth dilution | NCTC8325 | 20 h | > 64 mg/L |
